Measurements gathered from unrelated publications.
Several values in a cell are separate wells, animals, samples, runs or records. Numbers after ± are the reported error. In brackets after ≈: the same amount, converted by molar mass.

Compound | test | test system | conditions | how to read | measurement | result
N=C(N)NCc1ccc(C(=O)NCCCC[C@H](NC(=O)N[C@@H](CCC(=O)O)C(=O)O)C(=O)O)cc1[211At] |  | SCID mouse, PC-3 xenografts, muscle | 21 h |  | tissue uptake | 0.09 ± 0.01 %ID/g
CC(C)[C@H](NC(=O)CNC(=O)[C@H](CCC(N)=O)NC(=O)[C@H](C)N)C(=O)O |  | healthy human | intravenous, 1 mg/kg single dose | relative to: subjects | subjects with adverse events | 16.7%
COc1cc(NC(=O)C(=O)c2c(C)n(Cc3ccc(Cl)cc3)c3ccc(C)cc23)ccn1 |  | cynomolgus monkey, female, plasma | oral, 10 mg/kg |  | CL/F | 40.1 mL/min/kg and 30.5 mL/min/kg and 62.1 mL/min/kg and 43.5 mL/min/kg and 69.3 mL/min/kg
CC[C@H](C)[C@H](NC(=O)[C@H](CCCCN)NC(=O)[C@H](Cc1ccccc1)NC(=O)[C@H]1CCC[C@@H]1NC(=O)[C@@H](N)CCCCN)C(=O)N[C@@H](C)CC(=O)N[C@@H](CCCCN)C(=O)N[C@@H](CCCCN)C(=O)N[C@H]1CCC[C@@H]1C(=O)N[C@H](C(=O)N[C@@H](CCCCN)C(=O)N[C@H](C(=O)N[C@H](CC(N)=O)Cc1ccccc1)[C@@H](C)O)C(C)C | circular dichroism | trifluoroethanol in water |  | relative to: 15% TFE over 100% TFE | helical rigidity | 24 ± 4%
C[C@@H]1CC[C@H]2[C@@H](C)CO[C@@H]3O[C@@]4(C)CC[C@@H]1[C@]32OO4 |  | Sprague-Dawley rat, male | oral, 100 mg/kg |  | AUC extrapolated | 4.92 ± 1.35%
O=c1c2ccccc2[se]n1CCCn1[se]c2ccccc2c1=O |  | 20% Soluplus in water | 24 h, 25 °C, 200 mg/mL |  | solubility | 300 ± 17 µg/mL (≈ 688 µM)
CC[C@H](C)C(=O)N1CCC(NC(=O)Nc2ccc(OC(F)(F)F)c(F)c2)CC1 |  | human, plasma | oral, 8 mg, single dose, fasted, healthy volunteers |  | Cmax | 35 ng/mL
CSCC[C@H](NC(=O)[C@H](Cc1c[nH]c2ccccc12)NC(=O)CNC(=O)[C@H](Cc1ccc(O)cc1)NC(=O)[C@H](C)NC(=O)[C@H](CCC(=O)O)NC(=O)[C@H](Cc1c[nH]cn1)NC(=O)[C@H](Cc1c[nH]cn1)NC(=O)[C@H](Cc1c[nH]cn1)NC(=O)[C@H](Cc1c[nH]cn1)NC(=O)[C@H](Cc1c[nH]cn1)NC(=O)[C@H](Cc1c[nH]cn1)NC(=O)CN1CCN(CC(=O)O)CCN(CC(=O)O)CCN(CC(=O)O)CC1)C(=O)N[C@@H](CC(=O)O)C(=O)N[C@@H](Cc1ccccc1)C(N)=O |  | MF1 nude mouse, male, CA20948 xenograft | intravenous, 0.2 µg, 4 h, 111In-labelled | relative to: tumour over kidney | tumour-to-kidney ratio | 0.18
CCNc1cc2[o+]c3cc(NCC)c(C)cc3c(-c3ccccc3C(=O)OCCOCC[18F])c2cc1C |  | rat | 120 min | relative to: heart over bone | tissue uptake ratio | 4.8
CSCC[C@@H]1NC(=O)[C@@H]2CSSC[C@H](NC(=O)[C@H](CO)NC(=O)[C@H](C)N)C(=O)N[C@@H](CCCNC(=N)N)C(=O)N[C@@H]([C@@H](C)O)C(=O)N3CCC[C@H]3C(=O)N[C@@H](CCCCN)C(=O)N[C@@H](CC(=O)O)C(=O)N[C@H]3CSSC[C@H](NC(=O)[C@H](CCCCN)NC(=O)[C@H](CCCNC(=N)N)NC(=O)[C@H](CC(N)=O)NC1=O)C(=O)N[C@@H](CCCCN)C(=O)N[C@H]1CSSC[C@H](NC(=O)[C@@H]4CCCN4C(=O)[C@H](CC(=O)O)NC(=O)[C@H](C)NC3=O)C(=O)N[C@@H](C)C(=O)N[C@@H](CCCCN)C(=O)N[C@@H](CCC(=O)O)C(=O)N[C@@H]([C@@H](C)O)C(=O)NCC(=O)N[C@@H](CSSC[C@@H](C(N)=O)NC(=O)[C@H](CCCNC(=N)N)NC(=O)[C@H](CC(N)=O)NC1=O)C(=O)N1CCC[C@H]1C(=O)N[C@@H](Cc1ccc(O)cc1)C(=O)NCC(=O)N[C@@H](CCCCN)C(=O)N2 |  | DA rat, pristane-induced arthritis, serum | subcutaneous, 0.1 mg/kg every other day, end of 21-day trial |  | total protein | 4.34 g/dL
COc1ccc(F)cc1S(=O)(=O)Nc1cnc2c(c1)C(=O)NCCO2 |  | C57BL/6J mice, plasma | oral, 1 mg/kg |  | AUC(0-t) | 325 ± 73 ng‧h/mL
CCCCCCCC(=O)NC[C@H](NC(=O)[C@H](CO)NC(=O)CN)C(=O)N[C@@H](Cc1ccccc1)C(=O)N[C@@H](CC(C)C)C(=O)N[C@@H](CO)C(=O)N1CCC[C@H]1C(=O)N[C@@H](CCC(=O)O)C(=O)N[C@@H](Cc1c[nH]cn1)C(=O)N[C@@H](CCC(N)=O)C(=O)N[C@@H](CCCNC(=N)N)C(=O)N[C@H](C(=O)N[C@@H](CCC(N)=O)C(=O)N[C@H](C(=O)N[C@@H](CCCNC(=N)N)C(=O)N1CCC[C@H]1C(=O)N1CCC[C@H]1C(=O)N[C@@H](Cc1c[nH]cn1)C(=O)N[C@@H](CCCCN)C(=O)N[C@@H](C)C(=O)N1CCC[C@H]1C(=O)N[C@@H](Cc1c[nH]cn1)C(=O)N[C@H](C(=O)N[C@H](C(=O)O)C(C)C)C(C)C)C(C)C)C(C)C |  | mouse, plasma | intraperitoneal, 7.2 mg/kg |  | AUC(0-inf) | 153 ng·h/mL
CN(C)C(CNC(=O)Nc1cc(C(F)(F)F)ccc1N1CCOCC1)c1ccncc1 (stereo not drawn) |  | mouse, serum | intraperitoneal, 180 mg/kg single dose |  | serum direct bilirubin | 0 mg/dL
CC[C@H](C)[C@H](NC(=O)[C@H](CCC(=O)O)NC(=O)[C@H](CCC(=O)O)NC(=O)[C@H](Cc1ccccc1)NC(=O)[C@H](CC(=O)O)NC(=O)CNC(=O)[C@H](CC(N)=O)NC(=O)CNC(=O)CNC(=O)CNC(=O)CNC(=O)[C@@H]1CCCN1C(=O)[C@H](CCCNC(=N)N)NC(=O)[C@@H]1CCCN1C(=O)[C@H](N)Cc1ccccc1)C(=O)N1CCC[C@H]1C(=O)N[C@@H](CCC(=O)O)C(=O)N[C@@H](CCC(=O)O)C(=O)N[C@@H](Cc1ccc(O)cc1)C(=O)N[C@@H](CC(C)C)C(=O)O | LC-MS/MS | processed plasma samples | 7 h, autosampler stability, nominal 3.0 ng/mL |  | concentration | 2.95 ± 0.1 ng/mL
c1ccc(C2(CCNC3CCC4(SCCS4)c4ccccc43)CCOC3(CCCC3)C2)nc1 (stereo not drawn) |  | rat, brain homogenate |  |  | fraction unbound | 0.0048
